Measured values collected from several papers.
Compare with care: the assays were run in different laboratories. ± marks the error that the study gave.
GPR17 R283I short isoform: Uracil nucleotide/cysteinyl leukotriene receptor, short isoform (GPR17, Homo sapiens, UniProt Q13304, R283I)
SLC10A1: Hepatic sodium/bile acid cotransporter (SLC10A1, Homo sapiens, UniProt Q14973)
CXCR4: C-X-C chemokine receptor type 4 (CXCR4, Homo sapiens, UniProt P61073)
Protein farnesyltransferase: Protein farnesyltransferase (Homo sapiens, UniProt P49354+P49356)
UGT1A9: UDP-glucuronosyltransferase 1A9 (UGT1A9, Homo sapiens, UniProt O60656)
T1: RNA aptamer A45C/A49U/C71U; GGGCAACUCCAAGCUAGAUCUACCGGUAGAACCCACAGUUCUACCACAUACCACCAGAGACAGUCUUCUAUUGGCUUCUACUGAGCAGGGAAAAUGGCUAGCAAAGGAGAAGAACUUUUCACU
T2: RNA aptamer minimized 9-12; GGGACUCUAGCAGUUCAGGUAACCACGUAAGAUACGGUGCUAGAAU
T3: RNA aptamer del A43; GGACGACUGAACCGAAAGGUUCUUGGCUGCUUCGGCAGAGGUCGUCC
T4: RNA aptamer; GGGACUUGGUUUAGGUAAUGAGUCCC

CNc1nc(Cl)cc2c1ncn2[C@@H]1O[C@H](COP(=O)(O)OP(=O)(O)OP(=O)(O)O)[C@@H](O)[C@H]1O.N.N.N.N
breakthrough time change (GPR17 R283I short isoform; frontal affinity chromatography-MS; mutated receptor IAM column; concentration not given; reference: wild type column): 21.4%

NC[C@@H]1O[C@H](O[C@H]2[C@@H](O)[C@H](O[C@@H]3[C@@H](O)[C@H](N)C[C@H](N)[C@H]3O[C@H]3O[C@H](CO)[C@@H](O)[C@H](O)[C@H]3N)O[C@@H]2CO)[C@H](N)[C@@H](O)[C@@H]1O
Kd (T1, RNA aptamer A45C/A49U/C71U; ITC; 25 °C, KCl 250 mM, one-site fit): 10 nM

CCOC(=O)C1=C[C@@H](OC(CC)CC)[C@H](NC(C)=O)[C@@H](N)C1
taurocholate uptake (SLC10A1; inhibitor; HEK293 expressing NTCP; 100 µM, 5 min, with: taurocholate 10 µM; reference: no compound): 102 ± 9%

O=C(Nc1cnccc1Cl)N1CCN(Cc2ccc3c(c2)OC(F)(F)O3)CC1
remaining activity (FAAH (Homo sapiens, UniProt O00519); human, leukocytes; oral, 10 to 100 mg once daily, 10 days, mean trough, with: [3H]-anandamide; reference: predose): 0.58 to 10.5%

N.N.N.N.O=P(O)(O)OP(=O)(O)OP(=O)(O)OC[C@H]1O[C@@H](n2cnc3c(NC4CCCC4)ncnc32)[C@H](O)[C@@H]1O
breakthrough time change (GPR17 R283I short isoform; frontal affinity chromatography-MS; mutated receptor IAM column; concentration not given; reference: wild type column): 24.9%

CC1N=C2C(=O)N=C(N)N=C2NC1C (stereo not drawn)
Ki (Pteridine reductase (PTR1, Trypanosoma brucei brucei, UniProt O76290); substrate inhibition, substrate, NADPH oxidation; Trypanosoma brucei; pH 7.4, 25 °C, substrate made in situ, with: NADPH 50 µM): 475000 ± 91000 nM

CC[C@H](C)[C@H](NC(=O)[C@H](C)NC(=O)[C@H](CCCNC(=N)N)NC(=O)[C@H](Cc1c[nH]cn1)NC(=O)[C@@H](NC(=O)[C@H](CCCNC(=N)N)NC(=O)[C@@H]1CCCN1C(=O)[C@@H](NC(=O)[C@H](CCC(N)=O)NC(=O)CN)C(C)C)[C@@H](C)O)C(=O)N[C@H](C(=O)N[C@@H](CC(C)C)C(=O)N[C@@H](C)C(=O)N[C@@H](CC(=O)O)C(=O)N[C@@H](Cc1c[nH]cn1)C(=O)N[C@H](C(=O)N[C@@H](CS)C(=O)N[C@@H](CCC(N)=O)C(=O)N[C@H](C(=O)N[C@H](C(=O)N[C@H](C(=O)N[C@@H](CCC(N)=O)C(=O)N[C@@H](CC(=O)O)C(=O)N[C@@H](Cc1ccccc1)C(=O)N[C@@H](C)C(=O)N[C@@H](CCCNC(=N)N)C(=O)O)[C@@H](C)O)[C@@H](C)CC)[C@@H](C)CC)[C@@H](C)CC)[C@@H](C)O
IC50 fold change (NR1D1 (Homo sapiens, UniProt P20393); NCoR peptide binding, competitor, TR-FRET; 1 h, with: labelled NCoR 2040-2065 peptide; reference: mutant over wild-type peptide): 2.5

CC1(C)[C@H](C(=O)O[C@H](C#N)c2cccc(Oc3ccccc3)c2)[C@@H]1C=C(Br)Br
EC20 (Voltage-gated sodium channel (Blattella germanica, UniProt O01306); tail current modification, two-electrode voltage clamp; Xenopus oocytes, coexpressed tipE; 10 min, pH 7.5, 20-22 °C, 100 depolarizing pulses -120 to -10 mV): 20 nM

c1cc(CN2CCCC2)nc(CN2CCCC2)c1
lowest effective concentration (CXCR4; binding, competition binding; MDA-MB-231; semi-quantitative screen, with: biotinylated TN14003): 1 nM

CNPL
relative fluorescence increase (Protein farnesyltransferase; enzyme activity, substrate, fluorimetric; peptide; 3 µM, 30 min, with: 9 µM farnesyl diphosphate; reference: dansyl-GCVLS (set to 1.0)): 0

Cc1cc(NC(=O)c2cccc(NC(=O)/C=C/CN(C)C)c2)ccc1Nc1nccc(-c2cccnc2)n1
inhibition (PRKDC (Homo sapiens, UniProt P78527); ATP-biotin probe labeling, KiNativ; A-375; 1 µM, 3 h, first of two sites): 34.9%

CHPL
relative fluorescence increase (Protein farnesyltransferase; enzyme activity, substrate, fluorimetric; peptide; 3 µM, 30 min, with: 9 µM farnesyl diphosphate; reference: dansyl-GCVLS (set to 1.0)): 0

CCC/C=C/C=O
remaining 1-NPN fluorescence (Chilo suppressalis CSP2; binding, competitive ligand, fluorescence competitive binding; highest concentration tested, pH 7.4, protein 2 µM, with: 1-NPN 2 µM; reference: no ligand): 61.3 ± 3.02%

Cc1cc(O)c2c(c1)C(=O)c1cc(O)cc(O)c1C2=O
Vmax (UGT1A9; substrate; pH 7.4, 37 °C): 2930 pmol/mg/min

Cc1ccc(NC(=O)c2ccc(CN3CCN(C)CC3)cc2)cc1Nc1nccc(-c2cccnc2)n1
taurocholate uptake (SLC10A1; inhibitor; HEK293 expressing NTCP; 100 µM, 5 min, with: taurocholate 10 µM; reference: no compound): 90.7 ± 1.6%

Cc1ccc(C(=O)Nc2ccc3ccccc3c2)o1
effect on acid-evoked current (Otop1 (Mus musculus, UniProt Q80VM9, I239A); whole-cell patch-clamp; concentration not given, pH 6.0; reference: wild type): decreased

CILL
relative fluorescence increase (Protein farnesyltransferase; enzyme activity, substrate, fluorimetric; peptide; 3 µM, 30 min, with: 9 µM farnesyl diphosphate; reference: dansyl-GCVLS (set to 1.0)): 0.15

Nc1nc2c(ncn2[C@@H]2O[C@H](COP(=O)(O)OP(=O)(O)OP(=O)(O)O)[C@@H](O)[C@H]2O)c(=O)[nH]1
Kd (T2, RNA aptamer minimized 9-12; ultrafiltration; apparent, with: GTP): 300 nM

O=C(O)Cc1ccc(O)c(O)c1
NADH oxidase inhibition (NADH oxidase, rat; lysed brain mitochondria; concentration not given, 30 min preincubation): no inhibition

KQTARKSTGGWW (acetyl-Lys9)
kcat/Km (HDAC8 (Homo sapiens, UniProt Q9BY41); substrate, HPLC; peptide; 1 µM, 1 h, pH 8, 37 °C): 58 ± 1.1 M⁻¹ s⁻¹

CCCc1ccc(Oc2ccccc2)c(O)c1
Ki (Enoyl-[acyl-carrier-protein] reductase [NADPH] FabI (Staphylococcus aureus, UniProt Q6GI75); enzyme activity, inhibitor, progress curve kinetics, measured: NADPH): 0.07 nM

CN(Cc1cccc(CN(C)c2ccccc2)n1)c1ccccc1
lowest effective concentration (CXCR4; binding, competition binding; MDA-MB-231; semi-quantitative screen, with: biotinylated TN14003): 1000 nM

CNCCCN1c2ccccc2CCc2ccccc21
phenytoin uptake (Monocarboxylate transporter 8 (SLC16A2, Rattus norvegicus, UniProt Q8K1P8); inhibitor; Xenopus oocytes expressing rat MCT8; 1 mM, with: [14C]phenytoin 9.09 µM; reference: water-injected oocytes): no effect

N.N.Nc1nc(Cl)nc2c1ncn2[C@H]1C[C@H](OP(=O)(O)O)[C@@H](COP(=O)(O)O)O1
breakthrough time change (GPR17 R283I short isoform; frontal affinity chromatography-MS; mutated receptor IAM column; concentration not given; reference: wild type column): -0.3%

COc1cc2c(NC3CCN(CCCC(=O)NCCCCCCCCCCC(=O)N[C@H](C(=O)N4C[C@H](O)C[C@H]4C(=O)NCc4ccc(-c5scnc5C)cc4)C(C)(C)C)CC3)nc(N3CCC(F)(F)CC3)nc2cc1OCCCN1CCCC1
degradation (EHMT2 (Homo sapiens, UniProt Q96KQ7); degrader, western blot; 0.3 µM, 24 h; reference: DMSO): 79 ± 16%

CSFL
relative fluorescence increase (Protein farnesyltransferase; enzyme activity, substrate, fluorimetric; peptide; 3 µM, 30 min, with: 9 µM farnesyl diphosphate; reference: dansyl-GCVLS (set to 1.0)): 0

O=C(O)[C@H]1O[C@@H](O[C@H]2c3cc4ccc5cccc6c7ccccc7c(c3C=C[C@@H]2O)c4c56)[C@H](O)[C@@H](O)[C@@H]1O (relative stereo)
kcat (UGT1A9; glucuronidation, substrate; UGT-expressing HEK293 homogenate; normalized to UGT expression): 0.008 ± 0.000667 s⁻¹

Cc1ncc([N+](=O)[O-])n1CCO
taurocholate uptake (SLC10A1; inhibitor; HEK293 expressing NTCP; 100 µM, 5 min, with: taurocholate 10 µM; reference: no compound): 84.3 ± 2.7%

CCCCCCCCCCCC=O
remaining 1-NPN fluorescence (Chilo suppressalis CSP2; binding, competitive ligand, fluorescence competitive binding; highest concentration tested, pH 7.4, protein 2 µM, with: 1-NPN 2 µM; reference: no ligand): 41.8 ± 1.38%

CCC1(C)CC(=O)NC1=O (stereo not drawn)
taurocholate uptake (SLC10A1; inhibitor; HEK293 expressing NTCP; 100 µM, 5 min, with: taurocholate 10 µM; reference: no compound): 88.2 ± 3.8%

O=C(O)c1ccc(NC(c2ccc(Br)cc2)c2ccc3cccnc3c2O)cc1 (stereo not drawn)
remaining activity (CAAX prenyl protease 2 (Homo sapiens, UniProt Q9Y256); enzyme activity, inhibitor; 10 µM): 23 to 32%

CN(C)c1ccc2c(-c3ccc(C(=O)O)cc3C(=O)[O-])c3ccc(=[N+](C)C)cc-3oc2c1
Kd (T3, RNA aptamer del A43; fluorescence quenching titration; pH 7.5, 25 °C, NaCl 15 mM, no Mg2+): 1240 nM

NC[C@H]1O[C@H](O[C@H]2[C@H](O)[C@@H](O[C@H]3O[C@H](CO)[C@@H](O)[C@H](N)[C@H]3O)[C@H](N)C[C@@H]2N)[C@H](N)C[C@@H]1O
Kd (T4, RNA aptamer; square wave voltammetry; apparent, on gold electrode, electrochemical aptamer sensor): 23000 nM

O=C(Cn1c2ccccc2c2ccncc21)N(c1ccc(F)cc1)c1ccc(F)cc1
maximum fold increase (Proteasome subunit alpha type-2/Proteasome subunit alpha type-6, 20S proteasome (Homo sapiens, UniProt P25787+P60900); proteolysis, activator, fluorogenic peptide; purified 20S proteasome; up to 30 µM, with: Suc-LLVY-AMC, Z-LLE-AMC, Boc-LRR-AMC; reference: vehicle): 5.5

OC[C@H]1OC(O)[C@H](O)[C@@H](O)[C@H]1O (stereo partly drawn)
uptake inhibition (Glucose transporter 4 (Clonorchis sinensis, UniProt G7YT60); [3H]deoxy-D-glucose uptake; Clonorchis sinensis, Xenopus oocytes; 10 mM, pH 7.4): 24 ± 1.9%

C[N+](C)(C)CCOC(N)=O
GDP association slowing (Gi/o proteins; [3H]GDP binding SPA; CHO cell membranes; 100 µM, with: [3H]GDP 500 nM; reference: control mono-exponential fit): 10 fold

C[C@@H]1CC[C@H]2C(C)(C)[C@H]3C[C@@]12CC[C@@]3(C)O
fluorescence intensity (Chilo suppressalis CSP2; binding, competitive fluorescence displacement; 30 µM, pH 7.4): 32.3 ± 2.74%

CC(C)=CCC/C(C)=C/CC/C(C)=C/CO
dehydrogenase activity (Alcohol dehydrogenase 1 (Adh1, Rattus norvegicus, UniProt P06757); substrate; 0.1 mM, pH 7.4, with: 2 mM NAD+): 0.68 U/mg

CCCCCCCCCCCC(C)=O
fluorescence intensity (Chilo suppressalis CSP2; binding, competitive fluorescence displacement; 30 µM, pH 7.4): 46 ± 0.77%

CC(C)OC(=O)C(C)(C)Oc1ccc(C(=O)c2ccc(Cl)cc2)cc1
taurocholate uptake (SLC10A1; inhibitor; HEK293 expressing NTCP; 100 µM, 5 min, with: taurocholate 10 µM; reference: no compound): 76.3 ± 6%

CGGL
relative fluorescence increase (Protein farnesyltransferase; enzyme activity, substrate, fluorimetric; peptide; 3 µM, 30 min, with: 9 µM farnesyl diphosphate; reference: dansyl-GCVLS (set to 1.0)): 0

CC[C@H](C)[C@H](NC(=O)[C@H](CCCCN)NC(=O)[C@H](CCC(N)=O)NC(=O)[C@H](CCCCN)NC(=O)[C@H](CC(C)C)NC(=O)[C@H](C)NC(=O)[C@H](C)NC(=O)[C@@H](NC(=O)[C@H](CCC(N)=O)NC(=O)[C@H](CCCCN)NC(=O)[C@H](CCCCN)NC(=O)[C@H](CC(C)C)NC(=O)[C@H](C)NC(=O)[C@H](C)NC(=O)[C@@H](NC(=O)[C@H](CCC(N)=O)NC(=O)[C@H](CCC(N)=O)NC(=O)[C@H](CCCCN)NC(=O)[C@H](CC(C)C)NC(=O)[C@H](C)NC(=O)[C@H](Cc1ccc(O)cc1)NC(=O)[C@H](C)NC(=O)[C@H](CCCCN)NC(=O)[C@H](CCC(N)=O)NC(=O)[C@H](CCCCN)NC(=O)[C@H](CC(C)C)NC(=O)[C@H](C)NC(=O)[C@H](C)NC(=O)[C@H](C)NC(=O)[C@H](CCCCN)NC(C)=O)[C@@H](C)CC)C(C)C)C(=O)N[C@@H](C)C(=O)N[C@@H](C)C(=O)N[C@@H](CC(C)C)C(=O)N[C@@H](CCCCN)C(N)=O
Tm (Fos-related antigen 1 (FOSL1, Homo sapiens, UniProt P15407); heterodimer unfolding, CD thermal denaturation; 150 µM total peptide, pH 7): 64 °C

For quick reference, copied from above:
Cc1ccc(NC(=O)c2ccc(CN3CCN(C)CC3)cc2)cc1Nc1nccc(-c2cccnc2)n1
taurocholate uptake (SLC10A1; inhibitor; HEK293 expressing NTCP; 100 µM, 5 min, with: taurocholate 10 µM; reference: no compound): 90.7 ± 1.6%

Cc1ccc(C(=O)Nc2ccc3ccccc3c2)o1
effect on acid-evoked current (Otop1 (Mus musculus, UniProt Q80VM9, I239A); whole-cell patch-clamp; concentration not given, pH 6.0; reference: wild type): decreased

CILL
relative fluorescence increase (Protein farnesyltransferase; enzyme activity, substrate, fluorimetric; peptide; 3 µM, 30 min, with: 9 µM farnesyl diphosphate; reference: dansyl-GCVLS (set to 1.0)): 0.15
